# Experimental data collected from several papers.
# Compare with care: the assays were run in different laboratories. Values joined by “and” are separate records of one study, mostly repeats; a detail may differ. Numbers after ± are the reported error.
# Large ribosomal subunit protein uL14: Large ribosomal subunit protein uL14 (Homo sapiens, UniProt P62829)
# folP: Dihydropteroate synthase (folP, Bacteria, UniProt P0AC13)
# MAPK8: Mitogen-activated protein kinase 8 (MAPK8, Homo sapiens, UniProt P45983)
# T1: RNA aptamer; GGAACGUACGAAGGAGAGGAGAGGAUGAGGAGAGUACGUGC
# T2: RNA aptamer; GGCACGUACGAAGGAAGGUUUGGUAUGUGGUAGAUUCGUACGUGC
Structure (SMILES),target,assay,system,conditions,how to read,measurement,result
CCCCCCCCCCCCC/C=C/C=O,Large ribosomal subunit protein uL14,"competitive isoTOP-ABPP, refers to: RPL23 cysteine peptide","proteome, soluble, MDA-MB-231","100 µM, together with: iodoacetamide probe","reference: DMSO over compound-treated, higher = stronger cysteine blockade",isoTOP-ABPP competition ratio,2
O=C(NO)c1ccc(Cn2c3c(c4cc(Br)ccc42)SC(c2ccccc2)C3)s1 (racemic),"Histone deacetylase 8 (Schistosoma mansoni, UniProt A5H660)",X-ray crystallography,,"ligand-Lys20 side chain, C2-CD",,interatomic distance,3.66 Å
Cc1ccc2c(c1)N(C)C=CC2=Cc1sc2ccccc2[n+]1C,"T1, RNA aptamer",fluorescence titration,,,,Kd,7.33 nM
CC1(C)CC[C@@]2(CO)C(=C3C=C[C@@H]4[C@@]5(C)CC[C@H](O)[C@@](C)(CO)[C@@H]5CC[C@@]4(C)[C@]3(C)C[C@@H]2O)C1,"SIRT1 (Homo sapiens, UniProt Q96EB6)","binding, microscale thermophoresis",,30.5 nM,,MST normalised fluorescence,910 a.u.
CC(C=CC=C(C)C=CC1=C(C)CCCC1(C)C)=CC=O,"Rhodopsin (RHO, Homo sapiens, UniProt P08100, P23H)","ER retention, immunostaining co-localization, refers to: opsin with calnexin",COS-7 transfected P23H,5.00 µM,,Pearson correlation coefficient,0.72
C[C@@]1(CO)CC[C@]2(CO)CC[C@]3(C)C(=CCC4[C@@](C)(CCC(=O)O)C([C@@](C)(O)CO)CC[C@]43C)[C@@H]2C1 (some centres unmarked),"HMGB1 (Homo sapiens, UniProt P09429)","binding, BLI",,,,koff,1.55 s⁻¹
CC(=O)N[C@@H](CCC(=O)O)C(=O)N[C@@H](CCC(=O)O)C(=O)N[C@@H](CCC(=O)O)C(=O)N[C@@H](Cc1c[nH]c2ccccc12)C(=O)N[C@@H](C)C(=O)N[C@@H](CCCNC(=N)N)C(=O)N[C@@H](CCC(=O)O)C(=O)N[C@@H](Cc1ccccc1)C(=O)NCC(=O)N[C@@H](C)C(=O)N[C@@H](CCC(N)=O)C(=O)N[C@@H](CC(C)C)C(=O)N[C@@H](CCCNC(=N)N)C(=O)N[C@@H](CCCNC(=N)N)C(=O)N[C@@H](C)C(=O)N[C@@H](C)C(=O)N[C@@H](CC(=O)O)C(=O)N[C@@H](CC(=O)O)C(=O)N[C@@H](CC(C)C)C(=O)N[C@@H](CC(N)=O)C(=O)N[C@@H](C)C(=O)N[C@@H](CCC(N)=O)C(=O)N[C@@H](Cc1ccc(O)cc1)C(=O)N[C@@H](CCC(=O)O)C(=O)N[C@@H](CCCNC(=N)N)C(=O)N[C@@H](CCCNC(=N)N)C(=O)N[C@@H](CCCNC(=N)N)C(N)=O,"Induced myeloid leukemia cell differentiation protein Mcl-1 homolog, residues 152-308 (Mus musculus, UniProt P97287)","binding, SPR",,,reference: PUMA peptide,ΔΔG,0.88 kcal/mol
CC[C@H](C)[C@H](NC(=O)[C@H](Cc1c[nH]cn1)NC(C)=O)C(=O)N[C@@H](CCCCN)C(=O)N[C@H](C(=O)N[C@@H](Cc1c[nH]cn1)C(=O)N[C@@H](CC(C)C)C(=O)N[C@@H](CC(=O)O)C(=O)N[C@@H](CCC(=O)O)C(=O)N[C@@H](CCC(=O)O)C(=O)N[C@H](C(=O)NCC(=O)N[C@@H](CCC(=O)O)C(=O)N[C@@H](CCCCN)C(=O)N[C@H](C(=O)N[C@@H](CO)C(=O)N[C@H](C(=O)N[C@H](C(=O)N[C@@H](CC(C)C)C(=O)N[C@@H](CC(=O)O)C(=O)N[C@H](C(N)=O)C(C)C)[C@@H](C)O)[C@@H](C)CC)[C@@H](C)O)[C@@H](C)O)[C@@H](C)O,"Kelch-like ECH-associated protein 1, Kelch domain (KEAP1, Homo sapiens, UniProt Q14145)","binding, ITC",,"pH 7, 298.15 K",,TΔS,-9.87 kcal/mol
Cc1nn(C)c2nc(N)[nH]c(=O)c2c1=O,folP,CETSA HiBiT,whole cells,,,melting temperature,64.8 °C
O=C1c2sc(-c3ccc(N4CCC(F)C4)nc3F)nc2CCN1c1cccnc1 (centres unmarked),"TAR DNA-binding protein 43, aggregated (TARDBP, Homo sapiens, UniProt Q13148)",saturation autoradiography,"human, FTLD-TDP type A brain sections",25 nM,,specific binding,104 nM
CC(C)(C(=O)N1CCC(Nc2nc3c(c(=O)[nH]2)CCCC3)CC1)c1ccc(Cl)cc1,"MRGPRD (Homo sapiens, UniProt Q8TDS7, Y245A)","miniGq recruitment, agonist, BRET",HEK293T,Y245A mutant,reference: wild type,Emax,61.2 ± 20.2%
CC[C@H]1CN([C@@H](CC)c2ccc(C(F)(F)F)cc2)[C@H](CC)CN1c1nc(=O)n(C)c2ccc(C#N)nc12,"Diacylglycerol kinase delta (DGKD, Homo sapiens, UniProt Q16760)",type II DGK,,concentration not given,,lipid kinase activity,inactive
Cc1cnc2nc1Nc1cccc(c1)COC/C=C/COCc1cc(ccc1OCCN1CCOCC1)N2,"FLT3 (Homo sapiens, UniProt P36888, D835V/ITD)",cell-free assay,,0.1 µM,,remaining signal,10%
N[C@H]1CC[C@H](Nc2nccc(-c3cccnc3Oc3ccc(NC(=O)NC4CC4)c4ccccc34)n2)CC1,"Nucleophosmin (NPM1, Homo sapiens, UniProt P06748)",kinobead competition pulldown,HEK293/HCT116 lysate mixture,"10 µM, 1 h, 4 °C",lower = stronger competition,log2 LFQ intensity,23.9 and 23.6 and 23.8 and 23.7
COC(=O)[C@@]1(C)C=C(C(=O)Nc2cccc(C(=O)Nc3ccc(Nc4nccc(-c5cccnc5)n4)c(C)c3)c2)C(=O)CC1,MAPK8,"enzyme activity, inhibitor",,"0.0007527 µM, 6 h, unit not given, together with: GSH 10 mM pre-incubation",reference: vehicle,remaining activity,0.993
Cn1cc(-c2cc(N3CCCCS3(=O)=O)ccc2N[C@H]2CC[C@H](C)CC2)c2cc[nH]c2c1=O (stereo in doubt),"Transcription initiation factor TFIID subunit 1, BD2 (TAF1, Homo sapiens, UniProt P21675)","binding, competition with immobilised ligand",,1 µM,,remaining binding,97%
CC1(C)C[C@@H](Nc2cccc(-c3sc(C(=O)O)c(OCC(=O)O)c3Cl)c2)CCN1S(=O)(=O)Cc1cccc(NC(=O)CN2CCC(c3ccc4c(c3)oc(=O)n4C3CCC(=O)NC3=O)CC2)c1 (some centres unmarked),"PTPN2 (Homo sapiens, UniProt P17706, H30A/P33A/R35A)","degrader, bio-layer interferometry",,250 nM,higher = more binding,BLI binding response,0.548 a.u.
Cc1cccc2c1N(C(=O)n1ccnn1)CC2,"KAI2 (Arabidopsis thaliana, UniProt Q9SZU7, S95C)",ITC,,S95C mutant,reference: wild type,relative affinity,97%
Cc1cc(C)cc(COc2cc3c(cc2OCc2cc(C)cc(C)c2)C2CC(O)(Cc4cn(CCOCCOCCNC(=O)CCCCC5SCC6NC(=O)NC65)nn4)CC(C)N2CC3)c1 (centres unmarked),"Atlastin-3 (Homo sapiens, UniProt Q6DD88)","biotinylated probe pull-down, refers to: ATL3",,10 µM probe,reference: heavy over light,SILAC ratio,2.06
COc1ccccc1-c1ccncc1C(=O)Nc1nnc(OCc2ccc(Cl)cc2)s1,"RecQ-like DNA helicase BLM, residues 636–1298 (BLM, Homo sapiens, UniProt P54132)","ATPase activity, ADP-Glo",,"30 µM, 1 h",,remaining activity,73%
Cn1nc(CCCC(=O)O)c(=O)c2c(=O)[nH]c(N)nc21,folP,CETSA HiBiT,"Escherichia coli, whole cells",concentration not given,reference: DMSO,melting temperature shift,1.44 °C
CCCCCC(O)/C=C/C=O (centres unmarked),Large ribosomal subunit protein uL14,"competitive isoTOP-ABPP, refers to: RPL23 cysteine peptide","proteome, soluble, MDA-MB-231","100 µM, together with: iodoacetamide probe","reference: DMSO over compound-treated, higher = stronger cysteine blockade",isoTOP-ABPP competition ratio,1.7
CC[C@H](C)[C@@H]1NC(=O)[C@H](Cc2ccccc2)NC(=O)[C@H](CCC(=O)O)NC(=O)[C@H](CCCNC(=N)N)NC(=O)CNC(=O)[C@@H](NC(=O)[C@H](CC(C)C)NC(=O)[C@H](CCCNC(=N)N)NC(=O)[C@@H](NC(=O)CNC(=O)[C@H](Cc2ccc(O)cc2)NC(=O)[C@@H]2CCCN2C(=O)[C@H](C)NC(=O)[C@H](C)NC(=O)[C@@H](N)CCCNC(=N)N)C(C)C)CSSC[C@@H]2NC(=O)[C@@H](NC(=O)[C@H](CO)NC(=O)[C@H](CO)NC(=O)[C@H](CO)NC(=O)[C@H](CC(C)C)NC(=O)CNC(=O)[C@H](C)NC(=O)[C@H](CC(C)C)NC(=O)[C@@H](NC(=O)[C@@H](N)CC(=O)O)C(C)C)CSSC[C@H](NC(=O)CNC(=O)[C@H](Cc3c[nH]c4ccccc34)NC(=O)[C@H](CCCCN)NC2=O)C(=O)N[C@@H](CO)C(=O)N[C@@H](CCCCN)C(=O)N[C@@H](CO)C(=O)N[C@@H](CCC(=O)O)C(=O)N[C@@H]([C@@H](C)CC)C(=O)N[C@@H](CO)C(=O)N[C@@H](CO)C(=O)N[C@@H](CC(C)C)C(=O)N[C@H](C(=O)O)CSSC[C@@H](C(=O)NCC(=O)NCC(=O)N[C@@H](CO)C(=O)N[C@@H](CCCNC(=N)N)C(=O)N[C@@H](Cc2c[nH]c3ccccc23)C(=O)O)NC(=O)[C@H]([C@@H](C)O)NC(=O)[C@H](Cc2ccccc2)NC(=O)[C@H]([C@@H](C)CC)NC(=O)[C@H](C(C)C)NC(=O)[C@H](C)NC(=O)[C@H](CCCNC(=N)N)NC1=O,"RXFP4 (Homo sapiens, UniProt Q8TDU9, R208A)",,HEK-293T,,reference: wild type,Emax,34.5 ± 8.79%
CC(CC(=O)O)c1nn(C)c2nc(N)[nH]c(=O)c2c1=O (centres unmarked),folP,CETSA HiBiT,"Escherichia coli, whole cells",concentration not given,reference: whole cell over lysate ΔTm,target engagement efficiency,23.5%
CN1C=CC(=Cc2sc3ccccc3[n+]2C)c2ccccc21,"T2, RNA aptamer",fluorescence titration,,,,Kd,0.23 nM
C#CCOC(=O)[C@]1(C)C=C(C(=O)OC(C)(C)C)C(=O)CC1,MAPK8,"enzyme activity, D-SENSOR",,"44.44 µM, mean of replicates",,normalized kinase activity,0.617
CC(CC(=O)O)c1n[nH]c2nc(N)[nH]c(=O)c2c1=O (centres unmarked),folP,CETSA HiBiT,whole cells,,,melting temperature,66.5 °C
CCCC1(C)C(=O)N(c2cccc(CN3CCN(Cc4ccc(Br)cc4)CC3)c2)C1=O,"DPP9 (Homo sapiens, UniProt Q86TI2)","enzyme activity, inhibitor",,5 µM,,activity vs control,52%
COc1cccc2c(N3CCC(CCP(=O)(O)O)CC3)ncnc12,"ENPP1 (Homo sapiens, UniProt P22413)","binding, SPR",,,,kon,5.22e+06 M⁻¹ s⁻¹
CC(C(=O)O)c1n[nH]c2nc(N)[nH]c(=O)c2c1=O (centres unmarked),folP,CETSA HiBiT,"Escherichia coli, whole cells",,,melting temperature,60.2 °C
CC(C)C[C@@H]1NC(=O)[C@@H]2CSSC[C@@H](C(=O)NCC(=O)O)NC(=O)[C@H](Cc3ccccc3)NC(=O)CNC(=O)[C@H](CC(N)=O)NC(=O)[C@@H]3CCCN3C(=O)CNC(=O)[C@@H]3CSSC[C@H](NC(=O)[C@H](CCCNC(=N)N)NC(=O)[C@@H]4CCCN4C(=O)[C@H](CCCNC(=N)N)NC(=O)[C@H](CCCCN)NC(=O)[C@H](C(C)C)NC(=O)[C@H](C(C)C)NC(=O)[C@H](CC(N)=O)NC(=O)[C@H](C(C)C)NC(=O)[C@H](CO)NC(=O)[C@H](CCC(N)=O)NC(=O)[C@@H](NC(=O)CN)CSSC[C@H](NC(=O)CNC(=O)[C@H](C)NC1=O)C(=O)N[C@@H](C(C)C)C(=O)N3)C(=O)N[C@@H](CCCCN)C(=O)N[C@@H](CCC(N)=O)C(=O)N[C@@H](CC(=O)O)C(=O)N[C@@H](CO)C(=O)N[C@@H](CC(=O)O)C(=O)N2,"Low-density lipoprotein receptor-related protein 6, E1 domain (LRP6, Homo sapiens, UniProt O75581)","binding, SPR",,pH 7.5,,kon,2.31e+06 ± 400000 M⁻¹ s⁻¹
CN(Cc1nn(C)c2nc(N)[nH]c(=O)c2c1=O)c1nnn[nH]1,folP,CETSA HiBiT,"Escherichia coli, whole cells",concentration not given,reference: whole cell over lysate ΔTm,target engagement efficiency,21.2%
C[C@@H](Nc1nc(N[C@H](C)C(F)(F)F)nc(-c2cccc(Cl)n2)n1)C(F)(F)F,"IDH2 (Homo sapiens, UniProt P48735)",,,1 h preincubation,,maximum inhibition,70.6 ± 2.4%
Cc1n[nH]c2nc(N)[nH]c(=O)c2c1=O,folP,CETSA HiBiT,"Escherichia coli, whole cells",,,melting temperature,56.6 °C
"CC(=O)C12NC(C)(C)CC1(C)C(=O)C1=C2c2c(c3c4n2C(C)(C)CC2=C4C4(CC(C)(C)NC(C)(C4)C2=O)CC3(C)C)C(=O)C(C)(C)N1 (single isomer, unassigned; (+))","P2X purinoceptor 4 (P2RX4, Homo sapiens, UniProt Q99571)","ion current, agonist, whole-cell patch clamp",HEK293T,10 µM,,activation,3.83 ± 0.03%

# For quick reference, copied from above:
Structure (SMILES),target,assay,system,conditions,how to read,measurement,result
Cc1ccc2c(c1)N(C)C=CC2=Cc1sc2ccccc2[n+]1C,"T1, RNA aptamer",fluorescence titration,,,,Kd,7.33 nM
Cc1cccc2c1N(C(=O)n1ccnn1)CC2,"KAI2 (Arabidopsis thaliana, UniProt Q9SZU7, S95C)",ITC,,S95C mutant,reference: wild type,relative affinity,97%
C#CCOC(=O)[C@]1(C)C=C(C(=O)OC(C)(C)C)C(=O)CC1,MAPK8,"enzyme activity, D-SENSOR",,"44.44 µM, mean of replicates",,normalized kinase activity,0.617
